# Experimental data pooled from the literature.
# Every numbered part comes from another study and shows a few of its results, in no order.

# Study 1 — read-out: enzyme activity; action: inhibitor; tested at: 0.5 µM; reference: control
# Target: Protein-tyrosine kinase 2-beta (PTK2B, Homo sapiens, UniProt Q14289)
# UniProt Q14289, sequence (whole entry, looked up): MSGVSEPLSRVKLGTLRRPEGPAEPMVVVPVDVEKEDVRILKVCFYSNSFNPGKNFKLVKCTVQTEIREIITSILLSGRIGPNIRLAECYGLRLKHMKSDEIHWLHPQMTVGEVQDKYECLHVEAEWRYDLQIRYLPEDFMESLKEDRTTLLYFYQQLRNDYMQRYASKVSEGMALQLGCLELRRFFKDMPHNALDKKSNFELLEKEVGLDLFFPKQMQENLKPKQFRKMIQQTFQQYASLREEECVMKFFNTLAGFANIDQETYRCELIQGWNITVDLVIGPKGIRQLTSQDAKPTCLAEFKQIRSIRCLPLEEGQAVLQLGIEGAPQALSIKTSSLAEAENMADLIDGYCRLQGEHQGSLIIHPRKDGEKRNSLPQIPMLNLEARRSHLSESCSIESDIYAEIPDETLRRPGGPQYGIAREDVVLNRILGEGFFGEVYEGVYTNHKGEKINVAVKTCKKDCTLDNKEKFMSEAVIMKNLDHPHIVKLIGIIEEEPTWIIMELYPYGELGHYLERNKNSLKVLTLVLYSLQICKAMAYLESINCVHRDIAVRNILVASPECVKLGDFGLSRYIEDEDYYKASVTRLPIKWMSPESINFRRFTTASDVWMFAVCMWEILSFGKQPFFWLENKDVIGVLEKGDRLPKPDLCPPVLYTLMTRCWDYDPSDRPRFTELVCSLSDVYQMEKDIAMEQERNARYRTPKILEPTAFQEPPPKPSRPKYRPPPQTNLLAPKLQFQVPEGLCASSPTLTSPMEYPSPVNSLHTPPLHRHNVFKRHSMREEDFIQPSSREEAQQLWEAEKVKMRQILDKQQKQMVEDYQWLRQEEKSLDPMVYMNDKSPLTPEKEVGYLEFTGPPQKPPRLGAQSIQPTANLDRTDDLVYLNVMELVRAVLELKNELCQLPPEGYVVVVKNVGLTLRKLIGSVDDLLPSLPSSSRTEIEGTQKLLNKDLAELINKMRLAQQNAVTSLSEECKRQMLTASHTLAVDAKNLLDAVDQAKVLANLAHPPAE
SMILES,remaining activity [%]
CCCNC(=O)Nc1ccc(Oc2ncnc3cc(OC)c(OC)cc23)cc1Cl,88
FC(F)(F)c1ccc(/C=C/c2nc(COc3ccc(CCCCn4ccnn4)cc3)co2)cc1,103
CCCCc1c(-c2ccc(O)cc2)[nH]c2nccnc12,99
COc1ccc(COc2ccc(Cc3cnc(N)nc3N)cc2OC)cc1,86.1
N#Cc1cnc2cnc(NCc3cccnc3)cc2c1Nc1ccc(F)c(Cl)c1,100
CN1CCN(c2ccc3nc(-c4c(N)c5c(F)cccc5[nH]c4=O)[nH]c3c2)CC1,84.3
CN(C)S(=O)(=O)c1ccc2c(c1)/C(=C/c1cc3c([nH]1)CCCC3)C(=O)N2,52.6
Nc1nc(Nc2ccc(S(N)(=O)=O)cc2)nn1C(=S)Nc1c(F)cccc1F,33.6
O=Nc1c(-c2c(O)[nH]c3cc(Br)ccc23)[nH]c2ccccc12,56.7
O=C1NC(=O)/C(=C/c2ccc3c(c2)OC(F)(F)O3)S1,110
Cc1ccc(S(=O)(=O)/C=C/C#N)cc1,92.8
O=C1NC(=O)c2c1c1c3ccccc3[nH]c1n1cncc21,70.1
c1cc(-c2cnn3cc(-c4ccc(OCCN5CCCCC5)cc4)cnc23)ccn1,106
O=C1Cc2c([nH]c3ccc(Br)cc23)-c2ccccc2N1,102

# Study 2 — technique: EMSA with sequencing; form: double-stranded DNA, one strand shown; medium: in vitro; tested at: 10 and 20 nM; reference: negative control set to 0; reading: higher = stronger binding
# Target: Hepatocyte nuclear factor 3-alpha (Foxa1, Mus musculus, UniProt P35582, residues 1-468, full length assumed)
# UniProt P35582, sequence (whole entry, looked up): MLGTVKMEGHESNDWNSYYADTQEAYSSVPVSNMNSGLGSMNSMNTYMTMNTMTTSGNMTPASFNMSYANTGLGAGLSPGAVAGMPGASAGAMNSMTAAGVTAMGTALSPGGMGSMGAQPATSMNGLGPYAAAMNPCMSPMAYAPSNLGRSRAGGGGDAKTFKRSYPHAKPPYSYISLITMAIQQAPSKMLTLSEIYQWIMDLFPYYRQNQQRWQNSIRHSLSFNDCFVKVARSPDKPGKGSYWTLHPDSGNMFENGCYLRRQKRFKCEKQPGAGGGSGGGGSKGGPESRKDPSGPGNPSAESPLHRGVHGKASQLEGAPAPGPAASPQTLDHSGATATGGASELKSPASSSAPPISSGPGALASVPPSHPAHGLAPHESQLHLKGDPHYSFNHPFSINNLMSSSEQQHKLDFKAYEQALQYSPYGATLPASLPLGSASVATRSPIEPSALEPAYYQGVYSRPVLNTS
# Notes: whole designed probe, mean of two concentrations, ends assumed
# All sequences stand within: GTGAGCGGTGCCCATTGATGGGGAAC … TTTCACTGGGATCGTGGGGAC
Strand,normalised bound fraction [ratio]
TTATGTATACAGAATGACTGACTACAACTATGGCAAAAACAAACAACAACAACAACAACAACAACAACAACAAACCCTCAATAGAGGAAAAAGTAATCTAGAAACAGATCAAATTATTAACACAATGACATTTGAATGGTGACAAAATTGGTGATTTTAGTTTTTCTTTCCTTTTAAAATGTTTTTAAAGCAC,0.326
ATCTTCCCCCTCTTCCTTGCCCCACCAGCTCACCTTCCCGGGTTATTTGCACAAAGGAAAATAAATAAAGCCGGCATTCGTTAACCCTCTTCTGGCGCAAACTGCTGTTTGCTCTGGATCTAACATGGTCCTTTGGCGACGCCAGGCTCCGGGAGAGCAAAGCACCGTGTCAGGGCCATGATCCGGGGTGGCC,0.368
ATCTTCCCCCTCTTCCTTGCCCCACCAGCTCACCTTCCCGGGTTGTTTACTTTGAGCAAAGTAAACAAAGCCGGCATTCGTTAACCCTCTTCTGGCGCAAACTGCTGTTTGCTCTGGATCTAACATGGTCCTTTGGCGACGCCAGGCTCCGGGAGAGCAAAGCACCGTGTCAGGGCCATGATCCGGGGTGGCC,0.529
CAAACTTTGCTGTAGTTTAACCCTGTAAATCATTGGAAAGTTTATCAAATACCTTAAATGCTTTTGCAACTTATTCATTCCCTGGTTATTTGGGTAAACAAGTACAGCGCACTGTTGGATGAACTTTATCTGAACTATTATCACTGAGCTGTTGGGGGAAATTCCGTCTTTTCCAAATCTGTACTGCGATATA,0.188
ATCTTCCCCCTCTTCCTTGCCCCACCAGCTCACCTTCCCGGGTTATTTGCAGATAGGAAAATAAATAAAGCCGGCATTCGTTAACCCTCTTCTGGCGCAAACTGCTGTTTGCTCTGCATCTAACATGGTCCTTACGCGAGGCGTGGCTCCGGGAGAGCAAAGCACCGTGTCAGGCGCATGATCCGGGGTGGCC,0.355
TTCCTTTATCCCAACATGTTTATACAGACAAAACCAGGTTAAAATCGACACAAGGTCAACTTGAAATGGGGAAAGAGGAAGGTGACGTCACAAAATAAACATGAAGTCTTGTGTACAAGCATCTGCAGAAGAGTTCAGCCTCACCACTTGGGTAATGCTGTTGGAATGTGGTCTGGGTTCACTGTATTTGAAT,0.34
TCGGCCAGCCTGGCTTCTGCGCCCCGCCAGGAGGTCGCGGAGCGGAGCGCGGCCAGGAAGTGAGCTGAGAGTGAATGACTCATTCACGCTGTTTGTTTATTCATGTCACATTCTCTCCACACACTGGCTCTTCTTTCTTTCGGGAGGAGGGGAGAAAGGAGCGGGAGGGCGGGCGGGCAGGGGAGAGGCAGGC,0.457
GTGTGTGCGCGCGCGTGTGTGTGTGTTTTCTTAAGCCGGGCTATTCAAACCCTGCTGCAATTCAATGATTCATCTCCGGTAAAGGGGCACGTTTATTTGCATTAGATTGCAAACGGCGCGGTTCGCGCACTTTGCAGCCGGCCCGGTGGAGCAGCCAGTGCCGGATTTCTCCCTTTTTTTGCAGATCTGCAGA,0.421

# Study 3 — read-out: ligand displacement; technique: radioligand; tested at: 10 µM
# Target: 5-hydroxytryptamine receptor 1B (HTR1B, Homo sapiens, UniProt P28222)
# UniProt P28222, sequence (whole entry, looked up): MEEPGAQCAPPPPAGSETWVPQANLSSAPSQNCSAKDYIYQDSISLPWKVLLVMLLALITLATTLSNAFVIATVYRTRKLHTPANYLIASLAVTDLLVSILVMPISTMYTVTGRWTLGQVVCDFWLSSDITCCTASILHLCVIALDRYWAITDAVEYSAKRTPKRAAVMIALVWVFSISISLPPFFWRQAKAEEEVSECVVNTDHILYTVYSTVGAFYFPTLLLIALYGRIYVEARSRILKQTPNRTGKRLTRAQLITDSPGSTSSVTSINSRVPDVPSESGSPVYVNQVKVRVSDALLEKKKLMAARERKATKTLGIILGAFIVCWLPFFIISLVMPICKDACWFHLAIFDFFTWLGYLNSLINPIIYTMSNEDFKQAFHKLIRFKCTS
SMILES,inhibition [%]
N#Cc1ccc(Nc2ccc3[nH]c(=O)[nH]c3c2)c(Cl)c1,6.7
CCCCN(CCCC)C(=O)CN1C[C@@H](c2cc(OC)c3c(c2)OCO3)[C@H](C(=O)O)[C@H]1CC(C)(C)CCC,-2.98
O=C(N[C@H]1CCCCC/C=C\C2C[C@@]2(C(=O)O)NC(=O)[C@@H]2C[C@@H](Oc3ccncc3)CN2C1=O)OC1CCCC1 (some centres unmarked),-3.04
Cc1nc(N2CC[C@@H](O)C2)ncc1-c1cc(C(F)(F)F)cc2[nH]ncc12,22.3
O=C(NCc1ncc(C(F)(F)F)cc1Cl)c1ccc2c(c1)C1(CCS(=O)(=O)CC1)[C@@H](C1CC1)N2S(=O)(=O)c1ccc(F)cc1,-2.74

# Mixed results — technique: nitrocellulose filter binding; form: RNA; medium: in vitro; tested at: 100 nM; reference: round 9 selected pool; reading: higher = stronger binding
# Target: SMN1, full length (human, UniProt Q16637, residues 1-294)
# UniProt Q16637, sequence (whole entry, looked up): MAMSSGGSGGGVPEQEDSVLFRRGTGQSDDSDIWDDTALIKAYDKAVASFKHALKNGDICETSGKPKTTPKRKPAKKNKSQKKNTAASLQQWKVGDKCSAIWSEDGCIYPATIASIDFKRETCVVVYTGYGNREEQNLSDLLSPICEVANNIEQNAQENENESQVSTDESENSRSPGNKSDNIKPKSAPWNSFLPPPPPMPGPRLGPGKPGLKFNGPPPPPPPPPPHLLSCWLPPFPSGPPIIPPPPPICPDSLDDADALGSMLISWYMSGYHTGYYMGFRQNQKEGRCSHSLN
# Notes: whole RNA, constant flanks, single concentration, ends assumed
Strand,relative RNA binding
GGGCUCACCACGCACGUGGGCGUGGCUUUUAUUUCGGUGACCUCACCACGGCAAGCU,7.5 % of pool
GGGCUCACCACGCACGUGCGUUGCUGGGUUAUGGUGCGUGCCUCACCACGGCAAGCU,46 % of pool
